Results pooled from the literature.
Compare with care: the assays were run in different laboratories. Numbers after ± are the reported error.
Sequence of UniProt Q16816 (whole entry, looked up): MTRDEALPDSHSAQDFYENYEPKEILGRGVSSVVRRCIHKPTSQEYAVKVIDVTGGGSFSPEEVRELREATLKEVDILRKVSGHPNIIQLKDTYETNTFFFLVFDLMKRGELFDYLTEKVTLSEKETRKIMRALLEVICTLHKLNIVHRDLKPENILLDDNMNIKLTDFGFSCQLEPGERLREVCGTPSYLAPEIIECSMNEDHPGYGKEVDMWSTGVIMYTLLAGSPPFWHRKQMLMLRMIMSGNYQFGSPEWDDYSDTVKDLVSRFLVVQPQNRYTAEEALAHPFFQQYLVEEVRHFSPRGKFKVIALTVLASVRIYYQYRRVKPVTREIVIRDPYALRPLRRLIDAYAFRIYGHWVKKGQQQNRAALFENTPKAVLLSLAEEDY

CNS(=O)(=O)Nc1nccc(Cc2c(C)c3ccc(Oc4ncccc4F)cc3oc2=O)c1F
IC50 (SU-DHL-6; cell viability; 7 days): > 1 µM

COc1cccc(OC)c1-c1cc(C(=O)NC2(C(=O)O)C3CC4CC(C3)CC2C4)nn1-c1ccc(C(=O)N(C)CCOCCOCCN(C)C(=O)[C@H](CCCCNC(=O)[C@H](CC(C)C)NC(=O)C2OC2C(=O)O)NC(=O)CN2CCN(CC(=O)[O-])CCN(CC(=O)[O-])CCN(CC(=O)[O-])CC2)cc1C(C)C.[177Lu+3] (mixture of isomers)
tissue uptake (mouse, HT-29 xenograft, lung; 24 h post injection): 0.59 %ID/g

Nc1ncc(-c2cc(-c3cnn(CC(F)(F)F)c3)ncc2F)nc1C(=O)NC1CNCC(F)C1 (stereo not drawn)
remaining binding (NIM1; KINOMEscan; 1 µM; reference: DMSO control): 100%

Cc1ncsc1-c1ccc(C(C)NC(=O)C2CC(O)CN2C(=O)C(NC(=O)CCCCCCCCCCN2CCCC(Nc3ncc(Cl)c(Nc4ccccc4S(=O)(=O)C(C)C)n3)C2)C(C)(C)C)cc1 (stereo not drawn)
log2 fold change (22Rv1; RNA-seq, item: ZMYM3 mRNA; concentration not given; reference: DMSO): -1

O=C(NCC1OC2CCC=CCCC2O1)c1ccc(COCCOCCOCC[18F])cc1 (stereo not drawn)
tissue uptake (healthy female BALB/c nude mice, heart; intravenous, 7.4 MBq per mouse, 60 min): 2.3 ± 0.2 %ID/g

CC(C)OCCOCc1ccc(OCC(O)CN(N=O)C(C)C)cc1 (stereo not drawn)
revertant fold increase (Salmonella typhimurium; Ames test; TA1535; 500 µg/plate, without metabolic activation; reference: solvent control): 0.7 fold

Cc1nn(-c2cccc(N)c2)c(=O)c2cnc(Nc3ccc(N4CCNCC4)cc3)nc12
IC50 (Phosphorylase b kinase gamma catalytic chain, skeletal muscle/heart isoform (PHKG1, Homo sapiens, UniProt Q16816); kinase activity, inhibitor, SelectScreen kinase profiling): > 10 µM

[123I]c1ccc2nc(-c3ccc(-n4ccnn4)nc3)cn2c1
tissue uptake (Wistar rat, brain; intravenous, 14 h): not detected

CNC(=O)C1CCCN(C(=O)C2CC3CCC2N3C(=O)[C@@H]2C[C@@H](O)CN2C(=O)NCc2cccc(Cl)c2F)C1 (mixture of isomers)
remaining activity (Cytochrome P450 2C19 (CYP2C19, Homo sapiens, UniProt P33261); enzyme activity, inhibitor, time-dependent inhibition; 0.0686 µM, preincubated with NADPH; reference: negative control): 102%

COc1cccc(OC)c1-c1cc(C(=O)NC2(C(=O)O)C3CC4CC(C3)CC2C4)nn1-c1ccc(C(=O)N(C)CCCN(C)C(=O)[C@H](CCCCNC(=O)[C@H](CC(C)C)NC(=O)C2OC2C(=O)O)NC(=O)CN2CCN(CC(=O)[O-])CCN(CC(=O)[O-])CCN(CC(=O)[O-])CC2)cc1C(C)C.[177Lu+3] (mixture of isomers)
tissue uptake (mouse HT-29 xenograft, large intestine; 4 h post injection, biodistribution): 0.68 %ID/g

O=C(O)CCCOc1ccc([18F])cc1-c1cc(-c2ccccc2C(F)(F)F)n(-c2ccccc2)n1
tissue uptake (mouse, blood; intravenous, dose not given, 360 min): 0.19 ± 0.01 %ID/g

CCCC[C@H](NC(=O)COCCOCCNC(=O)CN1CCN(CC(=O)O)CCN(CC(=O)O)CC1)C(=O)N[C@H]1CC(=O)NCCCC[C@@H](C(N)=O)NC(=O)[C@H](Cc2c[nH]c3ccccc23)NC(=O)[C@H](CCCNC(=N)N)NC(=O)[C@@H](Cc2ccccc2)NC(=O)[C@H](Cc2c[nH]cn2)NC1=O [technetium-99m labelled]
tissue uptake (C57 mouse, brain; intravenous, 0.037 MBq, 24 h): 0.01 ± 0.01 %ID/g

COc1ccc(Nc2nc(Nc3ccc(OCCOCC[18F])cc3)ncc2Br)cc1
tissue uptake (ICR mice, S180 tumour-bearing, lung; intravenous, 370 kBq, 5 min): 10.4 ± 0.52 %ID/g

Cc1cc(C)n(CCN(CCN)CCCCCCNC(=O)[C@@H](N)Cc2c[nH]cn2)n1.[99Tc+].[C-]#[O+].[C-]#[O+].[C-]#[O+]
tissue uptake (BALB/c nude mice, A549 xenograft, tumor; intravenous, 24 h): 0.76 ± 0.12 %IA/g

COc1cccc(OC)c1-c1cc(C(=O)NC2(C(=O)O)C3CC4CC(C3)CC2C4)nn1-c1ccc(C(=O)NCCNC(=O)[C@H](CCCCNC(=O)[C@H](CC(C)C)NC(=O)C2OC2C(=O)O)NC(=O)CN2CCN(CC(=O)[O-])CCN(CC(=O)[O-])CCN(CC(=O)[O-])CC2)cc1C(C)C.[177Lu+3] (mixture of isomers)
tissue uptake (mouse, HT-29 xenograft, liver; 168 h post injection): 1.4 %ID/g

CCCC[C@H](NC(=O)CNC(=O)CNC(=O)[C@H](CCCCNC(=O)[C@H](CC(=O)O)NC(=O)C(C)c1ccc(CC(C)C)cc1)NC(=O)CN1CCN(CC(=O)O)CCN(CC(=O)O)CCN(CC(=O)O)CC1)C(=O)N[C@H]1CC(=O)NCCCC[C@@H](C(N)=O)NC(=O)[C@H](Cc2c[nH]c3ccccc23)NC(=O)[C@H](CCCNC(=N)N)NC(=O)[C@@H](Cc2ccccc2)NC(=O)[C@H](Cc2c[nH]cn2)NC1=O (stereo partly drawn) [lutetium-177 labelled]
tissue uptake (C57 mouse, stomach; intravenous, 2 h, with: 10 µg NDP-MSH co-injection): 1.16 ± 0.23 %ID/g

N#C[C@@H]1CC(F)(F)CN1C(=O)CNC(=O)c1ccnc2c(NC(=O)[C@H](CCCCNC(=O)CCOCCOCCOCCOCCOCCOCCNC(=O)CN3CCN(CC(=O)[O-])CCN(CC(=O)[O-])CCN(CC(=O)[O-])CC3)NC(=O)CCCc3ccc(I)cc3)cccc12.[177Lu+3]
tissue uptake (mouse, U-87 MG tumour xenograft, brain; 48 h): 0.07 ± 0.08 %ID/g

CCCC[C@H](NC(=O)CCCCCCCNC(=O)CN1CCN(CC(=O)O)CCN(CC(=O)O)CC1)C(=O)N[C@H]1CC(=O)NCCCC[C@@H](C(N)=O)NC(=O)[C@H](Cc2c[nH]c3ccccc23)NC(=O)[C@H](CCCNC(=N)N)NC(=O)[C@@H](Cc2ccccc2)NC(=O)[C@H](Cc2c[nH]cn2)NC1=O [fluorine-18 labelled]
tissue uptake (C57 mice, B16/F10 melanoma, heart; intravenous, 1 h, with: NDP-MSH 10 µg): 0.5 ± 0.12 %ID/g

COc1cccc(OC)c1-c1cc(C(=O)NC2(C(=O)O)C3CC4CC(C3)CC2C4)nn1-c1ccc(C(=O)N(C)CCOCCN(C)C(=O)[C@H](CCCCNC(=O)[C@H](CC(C)C)NC(=O)C2OC2C(=O)O)NC(=O)CN2CCN(CC(=O)[O-])CCN(CC(=O)[O-])CCN(CC(=O)[O-])CC2)cc1C(C)C.[177Lu+3] (mixture of isomers)
tissue uptake (mouse, HT-29 xenograft, muscle; 24 h post injection): 0.7 %ID/g

C=C(NC(=O)c1csc(-c2nc3c(cc2O)-c2nc(cs2)C(=O)NC(C(C)O)C(=O)NC(=C(C)OC)c2nc(cs2)C(=O)NC2c4nc(cs4)C(=O)NC(COC(=O)c4c5c6c(cccc6n4O)COC(=O)C(OC4CC(C)(O)C(N(C)C)C(C)O4)C2OC5)c2nc-3cs2)n1)C(N)=O (stereo not drawn)
half-life (ICR mice, Streptococcus pneumoniae ATCC 49169 infected, immunocompromised, blood; intravenous, 8 mg/kg/day twice daily): 3.15 h

N#C[C@@H]1CCCN1C(=O)CNC(=O)c1ccnc2ccc(OCCCN3CCN(C(=O)CCc4ccc5c(c4)CN4CCN(Cc6cc(CCC(=O)O)ccc6O)CC(=O)[O][Al-]([18F])([O]C(=O)C4)[O]5)CC3)cc12 (stereo partly drawn)
tissue uptake (BALB/c nude mice, U-87 MG xenograft, blood; 1 h, blocking, with: DOTA-FAPI-04 40 nmol/mouse co-injected): 0.23 ± 0.03 %ID/g

N#C[C@@H]1CC(F)(F)CN1C(=O)CNC(=O)c1ccnc2c(NC(=O)[C@@H](N)CCCCNC(=O)CCOCCOCCOCCOCCOCCOCCNC(=O)CN3CCN(CC(=O)[O-])CCN(CC(=O)[O-])CCN(CC(=O)[O-])CC3)cccc12.[177Lu+3]
tissue uptake (mouse, U-87 MG tumour xenograft, lung; 24 h): 0.13 ± 0.08 %ID/g

COC1CN([C@H]2CC[C@H]([C@@]3(C)Oc4c(Cl)cc(C(=O)NCc5c(SC)cc(C)[nH]c5=O)c(C)c4O3)CC2)C1
log2 fold change (RNA-seq, item: NPL mouse homolog; mouse, HT-1376 xenograft, whole blood; dose not given; reference: vehicle): 0.69

CC(C)Cc1ccc(C(C)C(=O)N[C@@H](CCCCNC(=O)CCOCCOCCOCCOCCOCCOCCNC(=O)CN2CCN(CC(=O)[O-])CCN(CC(=O)[O-])CCN(CC(=O)[O-])CC2)C(=O)Nc2cccc3c(C(=O)NCC(=O)N4CC(F)(F)C[C@H]4C#N)ccnc23)cc1.[177Lu+3] (stereo partly drawn)
tissue uptake (mouse, U-87 MG tumour xenograft, brain; 48 h): 0.01 %ID/g

CCCC[C@H](NC(=O)COCCOCCNC(=O)CN1CCN(CC(=O)O)CCN(CC(=O)O)CC1)C(=O)N[C@H]1CC(=O)NCCCC[C@@H](C(N)=O)NC(=O)[C@H](Cc2c[nH]c3ccccc23)NC(=O)[C@H](CCCNC(=N)N)NC(=O)[C@@H](Cc2ccccc2)NC(=O)[C@H](Cc2c[nH]cn2)NC1=O [fluorine-18 labelled]
tissue uptake (C57 mice B16-F10 melanoma, muscle; intravenous, 0.37 MBq, 1 h): 0.31 ± 0.07 %ID/g

COc1cccc(OC)c1-c1cc(C(=O)NC2(C(=O)O)C3CC4CC(C3)CC2C4)nn1-c1ccc(C(=O)N(C)CCCN(C)CCCN(C)C(=O)[C@H](CCCCNC(=O)[C@H](CC(C)C)NC(=O)C2OC2C(=O)O)NC(=O)CN2CCN(CC(=O)[O-])CCN(CC(=O)[O-])CCN(CC(=O)[O-])CC2)cc1C(C)C.[177Lu+3] (mixture of isomers)
tissue uptake (mouse HT-29 xenograft, small intestine; 168 h post injection, biodistribution): 0.156 %ID/g

O=C(NCC1OC2CCC=CCCC2O1)c1ccc([18F])nc1 (stereo not drawn)
tissue uptake (healthy female BALB/c nude mice, small intestine; intravenous, 7.4 MBq per mouse, 120 min): 4.8 ± 0.2 %ID/g
